Results of several laboratories.
Protocols differ between the studies behind these lines. ± gives the spread as reported.

C[S]1CC[S]2CC[P](CO)(CO)[99Tc+]12.[C-]#[O+].[C-]#[O+].[C-]#[O+]
tissue uptake (female CF-1 mouse, small intestine; intravenous, 4 h): 2.2 %ID/g

O=C(O)CC[C@H](NC(=O)O[C@@H](CCCCNC(=O)c1ccc([18F])cc1)C(=O)O)C(=O)O
tissue uptake (mouse, PC-3 PIP/flu xenografts, lung; 30 min): 2.07 ± 1.51 %ID/g

N=C(N)NCc1ccc(C(=O)NCCCC[C@H](NC(=O)N[C@@H](CCC(=O)O)C(=O)O)C(=O)O)cc1[131I]
tissue uptake (SCID mouse, PC-3 xenografts, liver; 21 h): 0.16 ± 0.03 %ID/g

C=Cc1cc(O)cc2nc(-c3ccc(O)c([76Br])c3)oc12
tissue uptake (female C57BL/6 mouse, kidney; 6 h, high dose): 0.3 ± 0.12 %ID/g

N=C(N)NCc1ccc(C(=O)NCCCC[C@H](NC(=O)N[C@@H](CCC(=O)O)C(=O)O)C(=O)O)cc1[211At]
tissue uptake (SCID mouse, PC-3 xenografts, spleen; 4 h): 3.63 ± 2.4 %ID/g

CC[C@H](C)[C@@H]1NC(=O)[C@@H](NC(=O)CNC(=O)c2ccc(F)cc2)CSSC[C@@H]2NC(=O)[C@H](C)NC(=O)CNC(=O)[C@@H]3CCCN3C(=O)[C@@H]3CSSC[C@@H](C(=O)NCC(=O)O)NC(=O)[C@H](Cc4ccc(O)cc4)NC(=O)CNC(=O)[C@H](CC(N)=O)NC(=O)CNC(=O)[C@H](CCCNC(=N)N)NC(=O)[C@H](CSSC[C@H](NC(=O)[C@H](CCCNC(=N)N)NC(=O)[C@H](Cc4ccccc4)NC(=O)[C@H](CC(C)C)NC(=O)[C@H](CC(C)C)NC(=O)[C@H]([C@@H](C)O)NC(=O)CNC(=O)[C@H](CC(C)C)NC(=O)[C@H](CC(=O)O)NC(=O)[C@H]([C@@H](C)O)NC(=O)[C@H](CCCNC(=N)N)NC(=O)[C@H](CCSC)NC(=O)[C@H](CC(N)=O)NC(=O)[C@H](CC(C)C)NC1=O)C(=O)N[C@@H](CCCNC(=N)N)C(=O)N[C@@H](CCCNC(=N)N)C(=O)N[C@@H](CC(=O)O)C(=O)N[C@@H](CO)C(=O)N[C@@H](CC(=O)O)C(=O)N3)NC(=O)[C@H]([C@@H](C)CC)NC2=O [fluorine-18 labelled]
tissue uptake (PET; nu/nu mouse, female, BxPC-3 xenograft, liver; intravenous, 1 h): 1.2 ± 0.2 %ID/g

N=C(N)NCc1ccc(C(=O)NCCCC[C@H](NC(=O)CCCCCCC(=O)NCCCC[C@H](NC(=O)N[C@@H](CCC(=O)O)C(=O)O)C(=O)O)C(=O)O)cc1[131I]
tissue uptake (SCID mouse, PC-3 xenografts, bone; 21 h): 0.02 ± 0.01 %ID/g

CN[C@](C)(C[18F])C(=O)O
tissue uptake (SCID mouse U87 xenograft, liver; 120 min, post injection): 3.9 ± 1.5 %ID/g

COc1cc2ncnc(Oc3cccc(N[11C](=O)Nc4cc(C(C)(C)C(F)(F)F)on4)c3)c2cc1OC
tissue uptake (Balb/c nude mouse, female, A375 melanoma xenograft, skin; 6.6 MBq, 60 min): 2.57 ± 0.18 %ID/g

For quick reference, copied from above:
CC[C@H](C)[C@@H]1NC(=O)[C@@H](NC(=O)CNC(=O)c2ccc(F)cc2)CSSC[C@@H]2NC(=O)[C@H](C)NC(=O)CNC(=O)[C@@H]3CCCN3C(=O)[C@@H]3CSSC[C@@H](C(=O)NCC(=O)O)NC(=O)[C@H](Cc4ccc(O)cc4)NC(=O)CNC(=O)[C@H](CC(N)=O)NC(=O)CNC(=O)[C@H](CCCNC(=N)N)NC(=O)[C@H](CSSC[C@H](NC(=O)[C@H](CCCNC(=N)N)NC(=O)[C@H](Cc4ccccc4)NC(=O)[C@H](CC(C)C)NC(=O)[C@H](CC(C)C)NC(=O)[C@H]([C@@H](C)O)NC(=O)CNC(=O)[C@H](CC(C)C)NC(=O)[C@H](CC(=O)O)NC(=O)[C@H]([C@@H](C)O)NC(=O)[C@H](CCCNC(=N)N)NC(=O)[C@H](CCSC)NC(=O)[C@H](CC(N)=O)NC(=O)[C@H](CC(C)C)NC1=O)C(=O)N[C@@H](CCCNC(=N)N)C(=O)N[C@@H](CCCNC(=N)N)C(=O)N[C@@H](CC(=O)O)C(=O)N[C@@H](CO)C(=O)N[C@@H](CC(=O)O)C(=O)N3)NC(=O)[C@H]([C@@H](C)CC)NC2=O [fluorine-18 labelled]
tissue uptake (PET; nu/nu mouse, female, BxPC-3 xenograft, liver; intravenous, 1 h): 1.2 ± 0.2 %ID/g
